Results pooled from the literature.
Each line is one published result; not all experiments were run side by side. “And” joins repeats or separate records; there may be more than shown.
Target: SRSF protein kinase 2 (SRPK2, Homo sapiens, UniProt P78362)
Sequence of UniProt P78362 (whole entry, looked up): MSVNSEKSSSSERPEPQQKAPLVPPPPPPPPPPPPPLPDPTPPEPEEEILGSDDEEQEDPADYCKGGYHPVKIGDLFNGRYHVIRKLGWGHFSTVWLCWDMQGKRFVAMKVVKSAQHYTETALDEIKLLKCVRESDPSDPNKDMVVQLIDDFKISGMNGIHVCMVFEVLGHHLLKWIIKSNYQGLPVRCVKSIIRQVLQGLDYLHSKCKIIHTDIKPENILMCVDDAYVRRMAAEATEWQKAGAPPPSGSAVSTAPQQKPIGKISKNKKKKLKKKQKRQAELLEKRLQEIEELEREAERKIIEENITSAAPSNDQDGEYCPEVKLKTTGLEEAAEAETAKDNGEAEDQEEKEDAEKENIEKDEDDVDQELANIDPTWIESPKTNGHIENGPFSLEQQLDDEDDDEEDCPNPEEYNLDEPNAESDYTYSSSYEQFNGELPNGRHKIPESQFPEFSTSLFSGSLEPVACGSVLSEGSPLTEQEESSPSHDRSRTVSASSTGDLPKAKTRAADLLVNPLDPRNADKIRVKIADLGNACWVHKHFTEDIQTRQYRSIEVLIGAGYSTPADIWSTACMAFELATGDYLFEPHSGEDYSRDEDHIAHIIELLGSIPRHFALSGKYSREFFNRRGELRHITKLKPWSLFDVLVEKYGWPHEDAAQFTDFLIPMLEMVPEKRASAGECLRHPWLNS

| SMILES | test | conditions | scale | endpoint | value |
| --- | --- | --- | --- | --- | --- |
| Cc1nc2c(F)cc(-c3nc(Nc4ccc(CNC(=O)CCCCCCC(=O)NO)cc4)ncc3F)cc2n1C(C)C | enzyme activity, inhibitor | 1 µM | – | inhibition | 48% |
| CNC(=O)C1CCN(c2cc(C)c(F)cc2NC(=O)c2ccc(-c3cc(O)ccc3C)c(C)c2)CC1 | binding, competition with immobilised ligand | 1 µM | – | remaining binding | 94% |
| N#Cc1ccc(NC(=O)Nc2ccccc2O)cc1 | enzyme activity, inhibitor, FRET | 10 µM | – | inhibition | 18% |
| C=CC(=O)Nc1cccc(-c2cnc3[nH]cc(C(=O)NC(C)(C)C)c3n2)c1 | kinase activity | 0.1 µM | – | inhibition | 3% and 1% |
| CNC1C[S+]2CC[S+]3CC[S+](C1)[Ru-4]321([N]=C=S)[n]2c3ccc(OC)cc3c3c4c(c5cc(F)c[n+]1c5c32)C(=O)NC4=O (stereo not shown) | KinomeScan | 0.1 µM | baseline: untreated | remaining binding | 82% |
| NC(=O)[C@@H](O)C[C@H]1CCc2sc3ncnc(O[C@H]4CC[C@H](N5CCOCC5)CC4)c3c21 | enzyme activity, inhibitor | 10 µM | – | inhibition | 6% |
| O=C(Cc1ccc(OCc2ccccc2)cc1)NC1(C(=O)O)CCN(C(=O)c2ccc(-c3cccc(Cl)c3)cc2)CC1 | enzyme activity, inhibitor | 10 µM | – | activity vs control | 104% |
| C[C@H]1CN(C(=O)c2cn(-c3ccnc(N)n3)c3cc(C#CC4(O)CCCCC4)ccc23)CCN1 | enzyme activity, inhibitor, FRET | 1 µM | – | inhibition | 5% |
| CC(C)=CC1OC(C)(C)C2C=C3C(=O)C(Cl)=CC(O)C3C3C(O)C4OC4C(=O)C132 (stereo not shown) | cell-free assay, competition with immobilised ligand | 10 µM | – | remaining binding | 100% |
| COc1cccc(NC(=O)Nc2ccccc2O)c1 | enzyme activity, inhibitor, FRET | 10 µM | – | inhibition | -0.9% |
| C=CC(=O)N1CCCC(n2c(=O)c3ncccc3n(Cc3ccc(Oc4ccccc4)cc3)c2=O)C1 (stereo not shown) | cell-free assay, competition with immobilised ligand | 1 µM | – | remaining binding | 98% |
| Nc1ncc2c(n1)-c1c([nH]c3ccc(C4=CCOCC4)cc13)CCC2 | binding, competition with immobilised ligand | 1 µM | – | remaining binding | 100% |
| Cc1ccc(-c2c(/C=C(\C#N)C(=O)NC(C)C)n(CCCO)c3ncnc(N)c23)cc1 | cell-free assay, competition with immobilised ligand | 1 µM | – | remaining binding | 100% |
| CN(C(=O)N(C)c1ccc(C#N)cc1)c1ccccc1 | kinase activity, inhibitor, Z'-LYTE | 10 µM, together with: ATP at apparent Km | – | inhibition | no inhibition |
| C=CC(=O)N1CCc2ccc(-n3c(=O)ccc4cnc5ccc(-c6cnn(C)c6)cc5c43)cc21 | KINOMEscan | 1 µM | baseline: DMSO control | remaining binding | 100% |
| COc1cc(Nc2nccc(-c3cnn4nc(OC)ccc34)n2)cc(C(F)(F)F)c1 | binding, competition with immobilised ligand | 1 µM | – | remaining binding | 55% |
| Cc1cccc(O[C@H]2CCC[C@@H](C(C)CNCc3ccncc3)C2)c1 (relative stereo) | enzyme activity, inhibitor | 1 µM | – | inhibition | -3% |
| N#Cc1ccc(NC(=O)Nc2ccccc2)cc1 | enzyme activity, inhibitor, FRET | 10 µM | – | inhibition | 7.8% |
| CN1CCN(Cc2ccc(-c3ccc(CO[C@H]4CCC[C@@H]4NC(=O)c4cc(-c5cnn(C)c5)cnc4N)cc3)cc2)CC1 | enzyme activity, inhibitor | 0.1 µM | – | inhibition | -5% |

Excerpt of the above:
| SMILES | test | conditions | scale | endpoint | value |
| --- | --- | --- | --- | --- | --- |
| N#Cc1ccc(NC(=O)Nc2ccccc2O)cc1 | enzyme activity, inhibitor, FRET | 10 µM | – | inhibition | 18% |
